Results collected from several papers.
Protocols differ between the studies behind these lines. Numbers after ± are the reported error.
KCNH2: Voltage-gated inwardly rectifying potassium channel KCNH2 (KCNH2, Homo sapiens, UniProt Q12809)
Sequence of UniProt Q12809 (whole entry, looked up): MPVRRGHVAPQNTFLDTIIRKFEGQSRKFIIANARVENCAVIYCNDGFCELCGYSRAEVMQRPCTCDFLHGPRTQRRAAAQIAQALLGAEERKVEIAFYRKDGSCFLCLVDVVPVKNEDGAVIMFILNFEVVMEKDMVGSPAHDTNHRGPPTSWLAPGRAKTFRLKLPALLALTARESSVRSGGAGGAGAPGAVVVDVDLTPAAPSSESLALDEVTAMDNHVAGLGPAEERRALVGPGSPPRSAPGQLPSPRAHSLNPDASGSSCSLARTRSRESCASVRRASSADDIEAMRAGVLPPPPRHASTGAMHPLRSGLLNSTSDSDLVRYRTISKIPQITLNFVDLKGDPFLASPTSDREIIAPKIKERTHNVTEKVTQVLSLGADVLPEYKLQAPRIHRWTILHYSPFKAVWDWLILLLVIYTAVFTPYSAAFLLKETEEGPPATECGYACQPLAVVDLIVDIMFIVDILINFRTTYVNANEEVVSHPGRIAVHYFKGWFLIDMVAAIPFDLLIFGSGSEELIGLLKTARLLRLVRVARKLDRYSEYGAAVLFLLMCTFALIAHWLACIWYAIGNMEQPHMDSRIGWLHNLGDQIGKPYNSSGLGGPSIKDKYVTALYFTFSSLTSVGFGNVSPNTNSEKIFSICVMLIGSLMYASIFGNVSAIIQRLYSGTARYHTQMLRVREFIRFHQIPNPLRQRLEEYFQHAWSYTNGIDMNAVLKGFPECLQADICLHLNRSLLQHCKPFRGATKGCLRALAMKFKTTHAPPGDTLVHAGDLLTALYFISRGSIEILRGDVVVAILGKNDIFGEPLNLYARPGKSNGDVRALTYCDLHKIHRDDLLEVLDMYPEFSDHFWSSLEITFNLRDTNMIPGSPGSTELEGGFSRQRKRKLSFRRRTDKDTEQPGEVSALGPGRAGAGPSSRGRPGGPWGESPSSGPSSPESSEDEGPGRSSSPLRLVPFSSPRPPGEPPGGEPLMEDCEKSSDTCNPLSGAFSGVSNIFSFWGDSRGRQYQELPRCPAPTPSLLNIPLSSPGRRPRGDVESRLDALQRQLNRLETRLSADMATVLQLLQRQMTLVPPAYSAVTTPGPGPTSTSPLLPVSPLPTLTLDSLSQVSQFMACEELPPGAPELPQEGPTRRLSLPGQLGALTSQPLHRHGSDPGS
CYP2B6: Cytochrome P450 2B6 (CYP2B6, Homo sapiens, UniProt P20813)
Sequence of UniProt P20813 (whole entry, looked up): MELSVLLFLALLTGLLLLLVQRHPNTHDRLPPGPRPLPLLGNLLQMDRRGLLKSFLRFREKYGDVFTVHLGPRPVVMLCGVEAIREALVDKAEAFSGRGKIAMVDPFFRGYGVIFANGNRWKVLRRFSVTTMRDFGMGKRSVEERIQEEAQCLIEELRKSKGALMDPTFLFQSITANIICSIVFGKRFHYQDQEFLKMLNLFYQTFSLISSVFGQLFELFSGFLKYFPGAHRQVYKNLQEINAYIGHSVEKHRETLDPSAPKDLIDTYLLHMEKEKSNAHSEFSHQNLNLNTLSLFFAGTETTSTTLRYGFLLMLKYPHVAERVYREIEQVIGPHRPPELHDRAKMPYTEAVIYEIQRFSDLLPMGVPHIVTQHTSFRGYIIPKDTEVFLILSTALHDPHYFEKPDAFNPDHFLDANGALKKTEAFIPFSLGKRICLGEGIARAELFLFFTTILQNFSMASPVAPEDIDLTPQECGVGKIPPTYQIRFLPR
Sequence of UniProt P06133 (whole entry, looked up): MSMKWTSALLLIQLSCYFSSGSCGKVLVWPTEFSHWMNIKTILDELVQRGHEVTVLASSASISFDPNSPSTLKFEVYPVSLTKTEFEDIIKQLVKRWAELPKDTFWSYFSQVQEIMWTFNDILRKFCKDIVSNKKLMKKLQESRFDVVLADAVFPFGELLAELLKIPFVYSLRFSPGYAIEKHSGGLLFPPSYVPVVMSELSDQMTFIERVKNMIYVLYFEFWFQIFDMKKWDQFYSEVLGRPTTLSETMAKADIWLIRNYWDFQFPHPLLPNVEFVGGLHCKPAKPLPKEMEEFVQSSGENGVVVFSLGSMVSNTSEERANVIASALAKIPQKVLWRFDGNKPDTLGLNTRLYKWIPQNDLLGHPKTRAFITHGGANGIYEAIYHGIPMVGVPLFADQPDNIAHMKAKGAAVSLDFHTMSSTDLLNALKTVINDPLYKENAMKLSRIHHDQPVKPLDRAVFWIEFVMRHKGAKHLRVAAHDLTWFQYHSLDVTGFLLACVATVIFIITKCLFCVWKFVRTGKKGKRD

SMILES	target	test	system	setting	scale	measurement	value
CC[C@H](C)[C@H](NC(=O)[C@H](CC(=O)O)NC(=O)[C@@H](NC(=O)[C@@H]1CCCN1C(=O)[C@@H](N)CCCNC(=N)N)[C@@H](C)O)C(=O)N[C@@H](CCCCN)C(=O)N[C@H]1CSSC[C@@H]2NC(=O)[C@H](CCCCNC(=O)CCc3cn(CCOCCOCCOCCOCCOCCNC(=O)CCCCC[N+]4=C(/C=C/C=C/C=C5/N(C)c6ccccc6C5(C)C)C(C)(C)c5ccccc54)nn3)NC(=O)CNC(=O)[C@H](CC(N)=O)NC(=O)[C@H]([C@@H](C)O)NC(=O)[C@H](CCCCN)NC(=O)CNC(=O)[C@H](Cc3ccccc3)NC(=O)[C@H](CCCNC(=N)N)NC(=O)[C@H](CO)NC(=O)[C@H](CCCCN)NC(=O)[C@@H]3CSSC[C@@H](C(=O)N[C@@H](Cc4ccccc4)C(=O)O)NC(=O)[C@H](CC(=O)O)NC(=O)[C@H](CSSC[C@H](NC(=O)[C@H](CCC(N)=O)NC(=O)[C@H](Cc4ccc(O)cc4)NC(=O)[C@H](CO)NC(=O)[C@H](CCC(=O)O)NC(=O)[C@H](CO)NC1=O)C(=O)N[C@@H](Cc1ccccc1)C(=O)N1CCC[C@H]1C(=O)N[C@@H](C(C)C)C(=O)N3)NC(=O)[C@H](Cc1ccccc1)NC(=O)CNC(=O)[C@H](CC(N)=O)NC(=O)[C@H](C(C)C)NC2=O	KCNH2	ion current, two-electrode voltage clamp	Xenopus laevis oocytes	–	–	Hill coefficient	0.7 ± 0.1
CN(C)CC1CCCCC1(O)c1cccc(O)c1 (stereo not drawn)	P-glycoprotein	–	Caco-2 TC7	10 µM, 3 h, pH 6.8 apical, 7.4 basolateral, with: cyclosporin A 10 µM	–	Papp B to A	15.1 ± 0.5 ×10⁻⁶ cm/s
CCCCCc1cc(O)c2c(c1)OC(C)(C)C1CCC(CO)=CC21 (stereo not drawn)	CYP2B6	enzyme activity, inhibitor	microsomes of overexpressing HEK293 cells	concentration not given, pH 7.4, with: efavirenz	–	inhibition	inhibited
CCOC(=O)C1C(OC(c2ccc(Cl)cc2)c2ccc(Cl)cc2)CC2CCC1N2C (single isomer, unassigned)	KCNH2	ligand displacement, radioligand	–	–	–	Ki	287 nM
CCCCCc1cc(O)c2c(c1)OC(C)(C)C1CCC(C)=CC21 (single isomer, unassigned; (-))	UDP-glucuronosyltransferase 2B4 (UGT2B4, Homo sapiens, UniProt P06133)	codeine glucuronidation, inhibitor	HEK293 microsomes	with: codeine	relative to: UGT2B4 over UGT2B7	IC50 ratio	~3.6 fold
CC[C@H](C)[C@H](NC(=O)[C@H](CC(=O)O)NC(=O)[C@@H](NC(=O)[C@@H]1CCCN1C(=O)[C@@H](N)CCCNC(=N)N)[C@@H](C)O)C(=O)N[C@@H](CCCCN)C(=O)N[C@H]1CSSC[C@@H]2NC(=O)[C@H](CCCNC(=N)N)NC(=O)CNC(=O)[C@H](CC(N)=O)NC(=O)[C@H]([C@@H](C)O)NC(=O)[C@H](CCCCN)NC(=O)CNC(=O)[C@H](Cc3ccccc3)NC(=O)[C@H](CCCNC(=N)N)NC(=O)[C@H](CO)NC(=O)[C@H](CCCCN)NC(=O)[C@@H]3CSSC[C@@H](C(=O)N[C@@H](Cc4ccccc4)C(=O)O)NC(=O)[C@H](CC(=O)O)NC(=O)[C@H](CSSC[C@H](NC(=O)[C@H](CCC(N)=O)NC(=O)[C@H](Cc4ccc(O)cc4)NC(=O)[C@H](CO)NC(=O)[C@H](CCC(=O)O)NC(=O)[C@H](CO)NC1=O)C(=O)N[C@@H](Cc1ccccc1)C(=O)N1CCC[C@H]1C(=O)N[C@@H](C(C)C)C(=O)N3)NC(=O)[C@H](Cc1ccccc1)NC(=O)CNC(=O)[C@H](CC(N)=O)NC(=O)[C@H](C(C)C)NC2=O	KCNH2	ion current, inhibitor, two-electrode voltage clamp	–	pH 7.4, oocytes	–	IC50	12.2 nM
CCC1CN2CCC3(O)C(=Nc4cccc(OC)c43)C2CC1C(=COC)C(=O)OC (stereo not drawn)	UDP-glucuronosyltransferase, rat	4-MU glucuronidation, inhibitor	rat liver microsomes	100 µM, 30 min, pH 7.4, with: 4-methylumbelliferone 100 µM	–	inhibition	46%
CC[C@H](C)[C@H](NC(=O)[C@H](CC(=O)O)NC(=O)[C@@H](NC(=O)[C@@H]1CCCN1C(=O)[C@H](CCCNC(=N)N)NC(=O)CCCCCCCCc1cn(CCOCCOCCOCCOCCOCCNC(=O)CCCCC[N+]2=C(/C=C/C=C/C=C3/N(C)c4ccccc4C3(C)C)C(C)(C)c3ccccc32)nn1)[C@@H](C)O)C(=O)N[C@@H](CCCCN)C(=O)N[C@H]1CSSC[C@@H]2NC(=O)[C@H](CCCNC(=N)N)NC(=O)CNC(=O)[C@H](CC(N)=O)NC(=O)[C@H]([C@@H](C)O)NC(=O)[C@H](CCCCN)NC(=O)CNC(=O)[C@H](Cc3ccccc3)NC(=O)[C@H](CCCNC(=N)N)NC(=O)[C@H](CO)NC(=O)[C@H](CCCCN)NC(=O)[C@@H]3CSSC[C@@H](C(=O)N[C@@H](Cc4ccccc4)C(=O)O)NC(=O)[C@H](CC(=O)O)NC(=O)[C@H](CSSC[C@H](NC(=O)[C@H](CCC(N)=O)NC(=O)[C@H](Cc4ccc(O)cc4)NC(=O)[C@H](CO)NC(=O)[C@H](CCC(=O)O)NC(=O)[C@H](CO)NC1=O)C(=O)N[C@@H](Cc1ccccc1)C(=O)N1CCC[C@H]1C(=O)N[C@@H](C(C)C)C(=O)N3)NC(=O)[C@H](Cc1ccccc1)NC(=O)CNC(=O)[C@H](CC(N)=O)NC(=O)[C@H](C(C)C)NC2=O	KCNH2	ion current, two-electrode voltage clamp	Xenopus laevis oocytes	–	–	Hill coefficient	0.8 ± 0.1
CCCCCc1cc(O)c2c(c1)OC(C)(C)C1CCC(C)=CC21 (single isomer, unassigned; (-))	CYP2B6	inhibitor	HEK293 overexpressing CYP2B6, recombinant microsomes	concentration not given, with: efavirenz	–	inhibition	inhibited

Excerpt of the above:
SMILES	target	test	system	setting	scale	measurement	value
CCCCCc1cc(O)c2c(c1)OC(C)(C)C1CCC(C)=CC21 (single isomer, unassigned; (-))	UDP-glucuronosyltransferase 2B4 (UGT2B4, Homo sapiens, UniProt P06133)	codeine glucuronidation, inhibitor	HEK293 microsomes	with: codeine	relative to: UGT2B4 over UGT2B7	IC50 ratio	~3.6 fold
